Values quoted from earlier work, collected from citations in different studies.
Lines come from different studies, so protocols differ. Numbers after ± are the reported error.
F2: Prothrombin (F2, Bos taurus, UniProt P00735)
Sequence of UniProt P04191 (whole entry, looked up): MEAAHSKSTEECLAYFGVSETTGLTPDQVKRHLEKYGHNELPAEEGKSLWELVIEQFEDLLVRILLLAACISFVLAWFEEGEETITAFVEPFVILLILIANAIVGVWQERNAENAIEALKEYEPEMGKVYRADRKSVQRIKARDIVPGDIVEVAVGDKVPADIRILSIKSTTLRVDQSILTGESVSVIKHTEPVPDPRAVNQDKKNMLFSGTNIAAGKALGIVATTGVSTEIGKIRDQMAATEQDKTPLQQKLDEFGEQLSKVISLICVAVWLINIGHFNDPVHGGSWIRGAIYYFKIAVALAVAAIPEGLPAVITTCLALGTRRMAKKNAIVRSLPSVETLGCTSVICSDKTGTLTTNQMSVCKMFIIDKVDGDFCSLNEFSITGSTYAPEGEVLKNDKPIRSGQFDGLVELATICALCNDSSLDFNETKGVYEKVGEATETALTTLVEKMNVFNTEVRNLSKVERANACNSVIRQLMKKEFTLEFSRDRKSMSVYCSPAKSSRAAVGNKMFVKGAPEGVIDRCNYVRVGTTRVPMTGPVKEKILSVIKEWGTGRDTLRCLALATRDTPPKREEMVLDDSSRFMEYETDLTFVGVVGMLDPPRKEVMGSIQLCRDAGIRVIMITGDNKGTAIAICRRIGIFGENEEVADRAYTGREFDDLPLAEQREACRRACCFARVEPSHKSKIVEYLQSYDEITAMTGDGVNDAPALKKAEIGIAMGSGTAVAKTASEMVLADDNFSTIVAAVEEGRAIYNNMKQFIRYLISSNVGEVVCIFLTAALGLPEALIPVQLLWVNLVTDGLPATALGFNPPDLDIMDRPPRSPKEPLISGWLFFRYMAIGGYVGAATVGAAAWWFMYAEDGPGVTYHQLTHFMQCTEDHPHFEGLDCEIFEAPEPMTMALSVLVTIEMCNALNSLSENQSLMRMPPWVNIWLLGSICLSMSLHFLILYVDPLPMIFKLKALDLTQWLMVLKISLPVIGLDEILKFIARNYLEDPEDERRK
Sequence of UniProt P25105 (whole entry, looked up): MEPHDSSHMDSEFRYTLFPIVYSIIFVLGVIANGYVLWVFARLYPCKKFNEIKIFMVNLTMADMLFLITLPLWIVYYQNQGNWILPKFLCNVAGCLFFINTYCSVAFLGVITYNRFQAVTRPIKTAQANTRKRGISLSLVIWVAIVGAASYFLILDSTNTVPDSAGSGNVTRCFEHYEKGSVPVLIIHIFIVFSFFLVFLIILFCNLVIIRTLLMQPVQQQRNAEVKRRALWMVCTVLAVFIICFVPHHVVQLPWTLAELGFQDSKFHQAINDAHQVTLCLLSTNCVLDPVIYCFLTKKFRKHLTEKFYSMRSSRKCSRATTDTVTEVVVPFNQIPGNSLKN
Sequence of UniProt P06241 (whole entry, unmodified, looked up): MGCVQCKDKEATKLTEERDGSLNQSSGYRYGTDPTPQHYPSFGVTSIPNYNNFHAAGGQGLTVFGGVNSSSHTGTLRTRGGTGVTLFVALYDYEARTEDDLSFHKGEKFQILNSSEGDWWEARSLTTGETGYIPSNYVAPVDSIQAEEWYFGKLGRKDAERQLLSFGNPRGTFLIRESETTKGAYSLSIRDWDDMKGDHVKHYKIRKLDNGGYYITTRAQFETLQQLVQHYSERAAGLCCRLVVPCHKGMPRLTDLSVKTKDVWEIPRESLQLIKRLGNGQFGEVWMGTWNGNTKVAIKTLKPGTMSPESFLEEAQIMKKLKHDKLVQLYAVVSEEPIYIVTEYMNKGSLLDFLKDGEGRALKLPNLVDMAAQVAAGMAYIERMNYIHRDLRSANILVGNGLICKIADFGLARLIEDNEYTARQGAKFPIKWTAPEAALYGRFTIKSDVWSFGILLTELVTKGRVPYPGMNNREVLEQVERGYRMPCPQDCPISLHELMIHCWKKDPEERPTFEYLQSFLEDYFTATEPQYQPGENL

Molecule = neurotensin; tested on = NTS1 F331A; conditions = concentration not given; scale = baseline: wild type; endpoint = binding affinity decrease; value = 10 fold
Molecule = CCL5; tested on = US28 Y16F; assay = binding, radioligand competition; endpoint = Kd; value = 4.6 nM
Molecule = Ac-APPIPPPRRKR-NH2 (N-acetyl, C-amide); tested on = Tyrosine-protein kinase Fyn, SH3 domain (FYN, Homo sapiens, UniProt P06241); test system = peptide; conditions = concentration not given; endpoint = binding enthalpy ΔH; value = -41 kJ/mol
Molecule = melittin; test system = rat erythrocytes; conditions = 200 µM; endpoint = hemolysis; value = 106 ± 17.6%
Molecule = TVELQGVVPRGVNL; tested on = F2; assay = substrate, HPLC; test system = peptide; endpoint = Km; value = 508 ± 44 µM
Molecule = 5′-methylthioadenosine; tested on = PRMT5; conditions = concentration not given; scale = baseline: S-adenosylmethionine; endpoint = binding affinity; value = ~10 fold
Molecule = omiganan; tested on = Staphylococcus aureus; test system = ATCC 25923; conditions = literature value; endpoint = MIC; value = 12.5 µM
Molecule = platelet-activating factor; tested on = Platelet-activating factor receptor (PTAFR, Homo sapiens, UniProt P25105); assay = binding; conditions = historical reference data; endpoint = Hill coefficient; value = 0.9
Molecule = SGSLSTFFRLFNRSFTQA; tested on = Histidine kinase ComD (Streptococcus mutans serotype c, UniProt Q8DS94); assay = agonist; test system = peptide; conditions = concentration not given, primary screen; endpoint = activation; value = 100%
Molecule = DFLAEGGGVRGPRV; tested on = F2; assay = substrate, HPLC; test system = peptide; endpoint = Km; value = 312 ± 42 µM
Molecule = sarcolipin; tested on = Sarcoplasmic/endoplasmic reticulum calcium ATPase 1 (ATP2A1, Oryctolagus cuniculus, UniProt P04191); assay = calcium affinity; endpoint = KCa; value = 0.8 ± 0.02 µM

Excerpt of the above:
Molecule = sarcolipin; tested on = Sarcoplasmic/endoplasmic reticulum calcium ATPase 1 (ATP2A1, Oryctolagus cuniculus, UniProt P04191); assay = calcium affinity; endpoint = KCa; value = 0.8 ± 0.02 µM
